Published values from different studies.
Numbered parts are unrelated; each lists some results of a single study. Positions count from the first letter of the parent shown.

Set 1
Target: Prothrombin, mature alpha-thrombin (F2, Homo sapiens, UniProt P00734)
Technique: aptamer microarray, sandwich
Molecule type: DNA with 2'F-ANA
Sample: in vitro
Tested at: 200 nM
Setting: whole 15-mer aptamer, many near background
Added: Cy3 exosite-II aptamer, 400 nM
Reading: higher = stronger binding
Sequence: GGTTGGTGTGGTTGG
For `2'F-ANA at 2 3 5 8 10 11 13 15`, “mean fluorescence intensity” read 54.3 a.u.
Under “mean fluorescence intensity”, `2'F-ANA at 1 3 9` is recorded as 297 a.u.
Under “mean fluorescence intensity”, `2'F-ANA at 1 2 4 5 7 8 11 13` is recorded as 50.1 a.u.
`2'F-ANA at 1 6 7 8 9 10 11 12 13 14 15` — result for “mean fluorescence intensity”: 50 a.u.
Under “mean fluorescence intensity”, `2'F-ANA at 1 6 7 8 9 10 12` is recorded as 73 a.u.
For `2'F-ANA at 3 4 6 9 11`, “mean fluorescence intensity” read 490 a.u.
`2'F-ANA at 2 3 4 6 7 9 10 11 14` — result for “mean fluorescence intensity”: 432 a.u.
`2'F-ANA at 3 6 7 14` — result for “mean fluorescence intensity”: 650 a.u.
`2'F-ANA at 1 2 3 4 5 8 9 12` — result for “mean fluorescence intensity”: 118 a.u.
`2'F-ANA at 1 11 13 14` — result for “mean fluorescence intensity”: 53.9 a.u.
`2'F-ANA at 3 4 5 7 8 12 14 15`: “mean fluorescence intensity” 59.6 a.u.
Under “mean fluorescence intensity”, `2'F-ANA at 1 3 4 8 12 14` is recorded as 107 a.u.
`2'F-ANA at 2 3 4 5 9 12 15` — result for “mean fluorescence intensity”: 175 a.u.
Under “mean fluorescence intensity”, `2'F-ANA at 2 5 6 7 9 11 12 14` is recorded as 139 a.u.
`2'F-ANA at 1 3 4 5 8 11 14 15`: “mean fluorescence intensity” 47.1 a.u.
`2'F-ANA at 2 3 4 7 12 13 14`: “mean fluorescence intensity” 370 a.u.
`2'F-ANA at 1 2 5 7 8 11 12 14 15`: “mean fluorescence intensity” 53.3 a.u.
For `2'F-ANA at 3 4 5 10 11 12 13 14`, “mean fluorescence intensity” read 48.8 a.u.
`2'F-ANA at 4 5 7 10 11 13` — result for “mean fluorescence intensity”: 49.2 a.u.

Set 2
Target: Interferon regulatory factor 5, full length, phosphomimetic (IRF5, Homo sapiens, UniProt Q13568-2, residues 1-514, K96S/S451D/S453D/S456D/S462D)
Technique: protein-binding microarray
Molecule type: double-stranded DNA, one strand shown
Sample: in vitro
Tested at: 250 nM
Setting: 60-bp whole probe
Added: salmon DNA 0.4 mg/ml
Relative to: random background probes
Reading: higher = stronger binding
Constant ends, left off below: GCCTAGCAC … GTCTTGATTCGCTTGACGCTGCTG
With `TCATTTTTCTACTTCTGACTGTGCTAG` the log fluorescence was 1.5 z-score.
The log fluorescence of `TTAGGTATCGGTTTCAGTTAGTGCTAG` is reported as 9.31 z-score.
The log fluorescence of `GACGGACTGAGTTTCGGGACGTGCTAG` is reported as 4.8 z-score.
`TCATATAGGTTGTTTCTAACTGTGCTA` has a log fluorescence of 0.776 z-score.
The log fluorescence of `TTAGGTATCCTTTTCCGTTAGTGCTAG` is reported as 0.684 z-score.
`TAAGAACTGGGGACTGGATTAGTGCTA` has a log fluorescence of -0.358 z-score.
For `TTAGGTTTCGGACTGGTTTAGTGCTAG`, the log fluorescence was 5.49 z-score.
With `GACGGTATCCTTCTCCTCACGTGCTAG` the log fluorescence was 0.187 z-score.
The log fluorescence of `GACGGACTGGGTCTCGGGAGGTGCTAG` is reported as -0.711 z-score.
The log fluorescence of `GACGGTCTCCGTCTCCTGACGTGCTAG` is reported as -0.35 z-score.
`GACGATAACGGGTTTCGAGACGTGCTA` gave a log fluorescence of 2.61 z-score.
For `TTAGGTTTCCGTATCGGTTAGTGCTAG`, the log fluorescence was 7.12 z-score.
`TTAGGCATCGGGTTTCGGTTAGTGCTA` gave a log fluorescence of 7.56 z-score.
With `CCACACACCATTCTCGGGACGTGCTAG` the log fluorescence was 0.117 z-score.
For `TTTTCATTATTGTGTCAACTTGTGCTA`, the log fluorescence was 3.13 z-score.
For `TTTCCACTTTCTTTTGCTTGGTGCTAG`, the log fluorescence was 4.82 z-score.
The log fluorescence of `TTAGGTTTCTGTCTCGGTTAGTGCTAG` is reported as 5.26 z-score.
`AGAGCTTGTAGCCATCTTTGGTGCTAG` has a log fluorescence of -0.467 z-score.
For `GACGGTTGCGACTATCGGGACGTGCTA`, the log fluorescence was 1.45 z-score.
With `GTTATCCTATATCTGAACCGGTGCTAG` the log fluorescence was 0.356 z-score.
The log fluorescence of `GACGGTTTCGACACTGGGGAAGTGCTA` is reported as 5.29 z-score.
`TTAGATTCCAGTTTCGGTTAGTGCTAG` gave a log fluorescence of 10.6 z-score.
The log fluorescence of `TTAGAACTGGGCTTTCGATTAGTGCTA` is reported as 6.22 z-score.
The log fluorescence of `TTAGATATCTGGTTTCGATTAGTGCTA` is reported as 8.91 z-score.
`TATTGTCTCCCCCATCTTGTTGTGCTA` gave a log fluorescence of 0.363 z-score.

Set 3
Target: RING finger protein unkempt homolog, zinc fingers 1-6, GST-SBP tag (UNK, Homo sapiens, UniProt Q9C0B0, residues 30-357)
Chain of UniProt Q9C0B0 (30-357, looked up): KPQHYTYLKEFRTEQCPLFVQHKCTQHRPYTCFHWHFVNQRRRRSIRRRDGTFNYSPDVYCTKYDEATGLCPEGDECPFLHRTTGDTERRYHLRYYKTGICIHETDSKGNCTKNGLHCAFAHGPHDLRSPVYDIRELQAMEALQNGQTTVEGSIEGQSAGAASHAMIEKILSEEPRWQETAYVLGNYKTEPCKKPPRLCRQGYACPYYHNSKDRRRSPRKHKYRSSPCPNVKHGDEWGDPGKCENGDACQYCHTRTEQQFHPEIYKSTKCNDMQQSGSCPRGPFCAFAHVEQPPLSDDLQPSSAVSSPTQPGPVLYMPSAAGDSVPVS
Technique: RNA Bind-n-Seq
Molecule type: RNA
Sample: in vitro
Tested at: not given
Setting: RNA with constant flanks, human and mouse sites, ends assumed
Relative to: input RNA pool
Reading: higher = stronger binding
For `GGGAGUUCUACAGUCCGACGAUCUAUCUGUCUUCCUUAAGUAUUUUUUAGGGUUUUGUUUUUUUUUUUGUUUGUUUGUUUGUUUGUCUUCACUUUUCCCCCAGGUCUGUUGAGCUGUAUGAGAUUCAUUCAUACUUCAUUUAUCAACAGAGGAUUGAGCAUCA`, the bound/input enrichment was 34 ratio.
`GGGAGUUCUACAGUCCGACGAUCUGUGAGAACCUGCCCGCUGAAGGUAGAGAGACUGUAAUUAUGAAUCAAAUCCUGCCCUAUAUAAAGGAAUUAGUGUCUGAUACCAACCAACAUGUCAAGUCAGCGCUAGCUUCUGUAAUUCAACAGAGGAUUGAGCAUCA` has a bound/input enrichment of 0.284 ratio.
The bound/input enrichment of `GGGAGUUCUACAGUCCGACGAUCGGCAGCAAAAGGCACAGUAGGUCAAGAAGCAGGUCUCGAUCCCGGACCAGAAGUUCCUCUAGGUCUCGUAGCCGAUCCCGUUCCCGUAGUCGCAAAUCUUACAGCCGGUCAAGAAGCAGGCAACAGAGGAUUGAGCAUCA` is reported as 1.79 ratio.
`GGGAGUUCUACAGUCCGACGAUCAGAAGUUGCAAGCAGUGUUCCAAAAGUUGUAGGCUCUGCUGUUGGUAGUGGGUCCAUCACUAGUAACAUUGUGGCUUCUAGCAGUUUGCCUCCAGCUACUAUUGCUCCUCCAAAACCAGCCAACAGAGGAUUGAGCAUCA` has a bound/input enrichment of 0.152 ratio.
For `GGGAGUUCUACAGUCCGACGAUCUCUUUUUCCUGGACUACAGACUGCAAUCCCCGUAGGGAGUGGCAUUGCUCACAUAGACAUUAGUAUUUUACUGAGGGUAUCAGCACCAUGGCCACUGAAGACCAGACAUAGGGUUGGGAACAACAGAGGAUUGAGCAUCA`, the bound/input enrichment was 4.63 ratio.
`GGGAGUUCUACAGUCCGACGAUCAGCCUUAUCCCUGGUCAUUUGGAUUUUCAGUUUGCUUUUUUCUUUUUUUCCCCUCCAAACUCCUUUUCCUUGGCCAAGCCUUCAUGCUUCCCCCUUUCCAUAUUAUAAUCUCAUUUGAUUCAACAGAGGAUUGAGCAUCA` gave a bound/input enrichment of 1.58 ratio.
`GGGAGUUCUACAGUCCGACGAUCCUUCCUCUGCCCCCCAUUGAGAUUCCAGCAGUUUUCUCGGGAAACACCUCUCCAAAAGUGGCAGUCGUUAAUCCUCAACCACAACAAUGGUCUAAAAUGUCAGUGAAGAAGGCCCCUCCACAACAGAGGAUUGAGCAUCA` has a bound/input enrichment of 0.335 ratio.
`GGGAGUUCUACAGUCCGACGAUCGAUGCUUUGAACAUUGAAACAGCCAUCAAGACCAAAGGUGUGGAUGAGGUCACCAUUGUCAACAUUUUGACCAACCGCAGCAAUGCACAGAGACAGGAUAUUGCCUUCGCCUACCAGAGACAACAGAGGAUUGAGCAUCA` gave a bound/input enrichment of 0.17 ratio.
The bound/input enrichment of `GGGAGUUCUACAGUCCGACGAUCCAGCAAAAAAUAAACAAAUUUGCUCGGAAUACGAGUCGAAUCACAGAGCUAAAGGAGGAAAUAGAAGUGAAGAAGAAACAUCUCCAGAACUUAGAGGACGCCUGUGAUGACAUCAUGCUGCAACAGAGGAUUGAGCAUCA` is reported as 0.477 ratio.
The bound/input enrichment of `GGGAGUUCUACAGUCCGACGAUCCCGUUCAUUCACUGCAGGACCAGGCACGAAAGUUAAAACAAAAUGAAGAUUUUUUCUGAAUCUCAUAAAACAGUGUUUGUUGUGGAUCACUGCCCAUACAUGGCAGAAUCCUGUAGGCAGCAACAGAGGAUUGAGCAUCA` is reported as 0.249 ratio.
With `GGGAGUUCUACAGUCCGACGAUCGACCCCCAGGUUAUGGAAGACAAAUCCGACCGCCCUGUCUGCCGACAUUUUGCCAAAAAGGGCCACUGUCGAUAUGAGGACCUCUGUGCCUUCUACCAUCCAGGCGUCAAUGGACCUCCUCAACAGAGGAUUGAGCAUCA` the bound/input enrichment was 0.112 ratio.

Set 4
Target: Histone acetyltransferase KAT6A, both winged helices, GST fusion (KAT6A, Homo sapiens, UniProt Q92794, residues 1-181)
Technique: protein binding microarray
Molecule type: double-stranded DNA, one strand shown
Sample: in vitro
Tested at: not given
Setting: 8-mer, flanks averaged, mean of 2 arrays, mostly near background
Relative to: not given
Reading: higher = stronger binding
Residues (chain): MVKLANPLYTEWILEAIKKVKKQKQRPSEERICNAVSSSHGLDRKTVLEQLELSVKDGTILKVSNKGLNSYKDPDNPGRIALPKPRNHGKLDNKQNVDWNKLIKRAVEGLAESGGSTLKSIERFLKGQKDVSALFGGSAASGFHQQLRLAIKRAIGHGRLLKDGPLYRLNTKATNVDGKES
The E-score of `AATCAACG` is reported as 0.158.
The E-score of `GAAGCACC` is reported as -0.185.
`GGCGATGA` has an E-score of 0.12.
`AAGTACGC` gave an E-score of 0.155.
The E-score of `CTCGGCAC` is reported as 0.163.
With `CGGGCAGC` the E-score was 0.132.
`CTTTGTTA` gave an E-score of -0.0166.
For `AACGTTGA`, the E-score was 0.00724.
For `CACACGGC`, the E-score was 0.289.
With `TACTAACA` the E-score was -0.138.
The E-score of `GCGACAAC` is reported as 0.202.
For `AACTTCTT`, the E-score was -0.202.
`CCTTAACC` gave an E-score of -0.138.
For `GCAATAAC`, the E-score was 0.0351.
For `TATTTCAA`, the E-score was -0.0646.
`AAGAACGC` has an E-score of -0.019.
With `ACTGAACC` the E-score was 0.07.
For `ATGTTTTC`, the E-score was 0.0524.
For `ATAATCAG`, the E-score was -0.0278.
With `AACTGGGT` the E-score was -0.269.
For `ATCCTTCC`, the E-score was -0.158.
`CCCGCACA` gave an E-score of 0.297.
The E-score of `AGTTGAAG` is reported as -0.282.

Set 5
Target: CCNE1, cyclin fold, Cln2 fusion (human)
Technique: yeast growth competition, sequencing
Sample: yeast
Setting: weak parent motif
Relative to: not given
Reading: higher = stronger binding
Starting sequence: WEE1 docking peptide (human); HKTFRKLRLFDTP
`F10N`: “normalised enrichment score” -0.442.
`K2L` — result for “normalised enrichment score”: 0.87.
`R5G` — result for “normalised enrichment score”: 0.0768.
`R5K L9F`: “normalised enrichment score” -0.134.
`T12V`: “normalised enrichment score” 0.993.
Under “normalised enrichment score”, `F4Q` is recorded as 0.0535.
For `K6M`, “normalised enrichment score” read -0.259.
For `T3F`, “normalised enrichment score” read 0.445.
`R5K`: “normalised enrichment score” 0.357.
`H1E`: “normalised enrichment score” 0.408.
For `F4I`, “normalised enrichment score” read 0.583.
Under “normalised enrichment score”, `D11F` is recorded as 1.41.
`T12H`: “normalised enrichment score” 1.48.
Under “normalised enrichment score”, `F4L` is recorded as 0.915.
`K2N`: “normalised enrichment score” 1.26.

Excerpt of the above (set 2):
The log fluorescence of `TTAGATATCTGGTTTCGATTAGTGCTA` is reported as 8.91 z-score.
With `CCACACACCATTCTCGGGACGTGCTAG` the log fluorescence was 0.117 z-score.
`GACGATAACGGGTTTCGAGACGTGCTA` gave a log fluorescence of 2.61 z-score.
For `TTAGGTTTCCGTATCGGTTAGTGCTAG`, the log fluorescence was 7.12 z-score.
For `TTTCCACTTTCTTTTGCTTGGTGCTAG`, the log fluorescence was 4.82 z-score.
For `TTTTCATTATTGTGTCAACTTGTGCTA`, the log fluorescence was 3.13 z-score.
`TTAGATTCCAGTTTCGGTTAGTGCTAG` gave a log fluorescence of 10.6 z-score.
